Results from different studies.
Lines come from different studies, so protocols differ. “And” joins repeats or separate records; there may be more than shown. Numbers after ± are the reported error.

aspterric acid
inhibition (hypocotyl length; Arabidopsis thaliana Col-0 seeds; 25 µg/mL): 98%

endothelin-1
contraction (ETA-dependent contraction, agonist; isolated mesenteric vein; concentration not given, secreted by PC-3 cells, together with: conditioned medium of PC-3 cells): active

KKPRPWPWKRRKK
ABTS radical scavenging (absorbance at 734 nm; peptide; 1 mg/mL, 5 min, room temperature): 0.721 fraction (0-1)

polymyxin B
maximum fusion (calcein leakage; DOPC/CHOL liposomes; concentration not given, together with: 20 wt% PEG-8000): 61 ± 7%

GWTLNSAGYLLGPHAVDNHRSFNDKHGFT-NH2 (C-amide)
colon length (peptide, Arrb2 flox control mice, DSS colitis; ip, 3 µM, 2% DSS): 5.7 cm and 5.6 cm and 5.9 cm and 5.2 cm and 5.4 cm

Met-enkephalin-Arg-Phe
maximum possible effect (antinociception, tail-flick; male ICR-CD1 mice; intracerebroventricular, 50 µg/animal, 60 min): -7.13% and 7.83% and 20.7% and 3.42% and 1.19% and 14.8% and 13.4% and 13%

mycosubtilin
leakage time constant (calcein leakage; DOPC/CHOL liposomes; concentration not given, together with: 20 wt% PEG-8000): 14 ± 3 min

insulin human
fold change (refers to: MAPK14 mRNA; EcoHIV-infected mouse, brain; i.p., dose not given; relative to: PBS): 1.02

CRQLRKGKFFSEGGSGGTSFEQFWAWLWP
tumour growth (peptide, mice, 786-O PAK4 knock-out xenograft; 5.0 mg/kg): no effect

GWTLNSAGYLLGPRRIDHLLMIKEMPIARGREEAPGA / YAVDNHRSFNDKHGFT-NH2 (C-amide)
mRNA level (RT-qPCR, refers to: Il1b; chicken, DSS-induced colitis, ileum; ip, 50 µM, unit not given; relative to: Actb): 0.0818 and 0.112 and 0.025 and 0.0709 and 0.0458 and 0.0342 and 0.0806

Repeated from above:
polymyxin B
maximum fusion (calcein leakage; DOPC/CHOL liposomes; concentration not given, together with: 20 wt% PEG-8000): 61 ± 7%

GWTLNSAGYLLGPHAVDNHRSFNDKHGFT-NH2 (C-amide)
colon length (peptide, Arrb2 flox control mice, DSS colitis; ip, 3 µM, 2% DSS): 5.7 cm and 5.6 cm and 5.9 cm and 5.2 cm and 5.4 cm
